# Measured values collected from several papers.
# Every numbered part comes from another study and shows a few of its results, in no order.

# Block 1
# Target: RING finger protein unkempt homolog, zinc fingers 1-6, GST-SBP tag (UNK, Homo sapiens, UniProt Q9C0B0, residues 30-357)
# Technique: RNA Bind-n-Seq
# Molecule type: RNA
# Medium: in vitro
# Tested at: not given
# Setting: RNA with constant flanks, human-mouse chimeric sites, ends assumed
# Relative to: input RNA pool
# Reading: higher = stronger binding
# Target sequence (chain): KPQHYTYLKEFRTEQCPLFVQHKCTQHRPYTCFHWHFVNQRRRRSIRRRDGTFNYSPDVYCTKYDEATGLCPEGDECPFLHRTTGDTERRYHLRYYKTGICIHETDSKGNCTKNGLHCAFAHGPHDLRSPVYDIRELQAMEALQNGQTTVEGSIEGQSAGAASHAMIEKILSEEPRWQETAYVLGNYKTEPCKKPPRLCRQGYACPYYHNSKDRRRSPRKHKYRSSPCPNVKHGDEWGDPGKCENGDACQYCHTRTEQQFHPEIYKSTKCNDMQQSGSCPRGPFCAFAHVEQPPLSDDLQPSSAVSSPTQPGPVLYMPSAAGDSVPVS
Strand,bound/input enrichment [ratio]
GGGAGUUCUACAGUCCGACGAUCUCUUAACUUAUUCAUUUAACUUAUUUUUAUAGCUAGAUAAAUAUUGUUAGUCUUAGACAAUAGCUCACAUCUUUACAGAAGCAUGCCCUCCCUGUCCAUUGGGCCCAUAACAUGACCCAGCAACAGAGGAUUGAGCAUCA,9.38
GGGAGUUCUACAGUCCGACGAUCAGGAGGAGAUUAAAGGGUGAGAGUGGGGUGGAAGACUGUGUCAUGGCUCUGGAGACACUGUUCAGUGUCCUGCUUUCUCUUUGCAGACUGAUGGCCCCUUACACGCCCUUUCUGACUGAGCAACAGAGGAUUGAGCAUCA,0.0846
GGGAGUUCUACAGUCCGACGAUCCAGCUGCAGACAGAAAAGGAUGAGAAGGAGCUGUAUAAGGUACAUUUGAAGAAUACAGAAAUAGAAAAUACCAAGCUUGUGUCAGAGAUACAGACUUUAAAAAAUUUAGAUGGAAACAAACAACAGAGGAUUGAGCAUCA,6.6
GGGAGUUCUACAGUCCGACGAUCUACUACUAUGAUGGUGAUAUUGGCAAUUAUUAUUAUGGACAGGGUCAUCCCAUGAAGCCUCAUAGAAUCCGGAUGACUCAUAACUUGCUGCUAAAUUAUGGUUUAUACCGAAAAAUGGAACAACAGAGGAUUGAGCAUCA,0.275
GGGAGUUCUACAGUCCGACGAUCGAUGAUAAUCACACAAACAAGUCACUGUUAUGUGACCAGCCUUGGGAUUCUUUUCCUGAUUAGUAUUCUCCCUGGAACCACUGGUCAAGGGGAAUCAAGACGACAAGAACCCGGGGACUUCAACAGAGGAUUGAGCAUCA,0.158
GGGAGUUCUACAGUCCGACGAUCAUUCCGAUUAUGGACACCGGUGAAAACCCAGAGGUGCCCUUCCCCCGGGACAUGAUUGACUUAGAGGCCAAUUUCGAGAAGAUUGAAAAUGAACUGAAGGAAAUCAACACAAACCAGGAACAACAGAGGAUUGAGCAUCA,0.0787
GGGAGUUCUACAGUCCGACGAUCGAAUCCUACUCAGGCGGAUUUUGCAACCUGAAUGCAAAGUAGCAAUUAUCUUAGUCACAGUAGGGUAGUUUUGGGGCUCUGUGGCCAGGGUUUUAUUCACAUGCAGGUUUGGAAAAUGUACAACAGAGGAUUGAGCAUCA,1.91
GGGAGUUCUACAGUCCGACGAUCUUGAAAACUGAUUCAAGUAAGUUUGAGUAUCACAAUGUUAGCUUUCUAAUUCCACACAAGUACUUGGUUUUUACAGUUUAUAAUCUGCAAUCCAUCAAGCGCCAUUUGUAAAGAGCAACUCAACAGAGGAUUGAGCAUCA,0.316

# Block 2
# Target: Histone acetyltransferase KAT6A, both winged helices, GST fusion (KAT6A, Homo sapiens, UniProt Q92794, residues 1-181)
# Technique: protein binding microarray
# Molecule type: double-stranded DNA, one strand shown
# Medium: in vitro
# Tested at: not given
# Setting: 8-mer, flanks averaged, mean of 2 arrays, mostly near background
# Relative to: not given
# Reading: higher = stronger binding
# Residues (chain): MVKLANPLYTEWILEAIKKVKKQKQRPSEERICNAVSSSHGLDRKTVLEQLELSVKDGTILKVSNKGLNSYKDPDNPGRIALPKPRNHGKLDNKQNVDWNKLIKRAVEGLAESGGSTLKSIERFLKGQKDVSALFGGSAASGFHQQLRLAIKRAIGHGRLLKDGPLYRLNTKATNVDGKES
Strand,E-score
GGCCGCAA,0.202
GCCCACAA,-0.0761
ATATCGCC,0.196
AGTCGCAC,0.0626
CTCCATAA,-0.18
AGTCATGA,-0.0462
GCAGAGCA,-0.0788
CATACTGA,-0.151
AACTGCCC,-0.101
GTAATGCA,-0.124
GCGGCGCA,0.337
CATGTGCA,-0.0495
GCACGCCA,0.0142
TAGGGGCA,-0.271
GTTCAGTA,-0.0302
AATCCACT,-0.228
AGCCCTTA,-0.144
ATACGACG,0.0872
ATTGCTAC,0.0408

# Block 3
# Target: RNA binding protein fox-1 homolog 2, RRM domain, GST-SBP tag (RBFOX2, Homo sapiens, UniProt O43251-10, residues 100-194)
# Technique: RNA Bind-n-Seq
# Molecule type: RNA
# Medium: in vitro
# Tested at: 365 nM
# Setting: natural RNA segment, single round, ends assumed
# Relative to: no-protein control
# Reading: higher = stronger binding
# Target sequence (chain): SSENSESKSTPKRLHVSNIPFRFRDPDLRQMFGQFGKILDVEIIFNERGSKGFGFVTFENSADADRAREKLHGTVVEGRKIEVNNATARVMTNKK
Strand,RBNS enrichment (R)
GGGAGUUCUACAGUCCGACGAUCACCUGCUUCCGCCUGGAGGAGAGCUGGGCAUCCAUGUUAGCCACAGUUCCUCAUCCACAGUGCUCCCACCUGAGGACCUGGCCCUGUGUGGAAAUUGAUUGGGAUUUGAUUGGAAUUCUCGGGUGCCAA,0.464
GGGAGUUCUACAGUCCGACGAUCCCGCCGUUGAGGGCUGAGUCCUUGCUGUGGGAUGUGCCAGUGUCCCCACCAACACCAGGAAUUUAGACCUUUUCCCUGCACCACUCUCUUCAUCCUGGGGGCUCUGUUACUGGAAUUCUCGGGUGCCAA,0.453
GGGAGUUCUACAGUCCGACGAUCUGGAGUUCCUAUCCCCUUUGAGGCUUACAAUCUUUCCUCCUUUUCUUCCAUAAGAGUUCCCAAGCUCUGUCCACUGUUUGGCUAUGGGUGUCUCUGUCUGAGUUAGCUGCUGGAAUUCUCGGGUGCCAA,0.693
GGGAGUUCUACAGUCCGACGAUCUACAUCAGGUCAGCACAGAUUAACUCAGUUACGUGUUAUACCUUCAAGACGCUAGACAUUCCAGAAUUAUUUUCCUUGGCCAUCCAAGUGAAGUAGAAGUAGAUUGUUGGUGGAAUUCUCGGGUGCCAA,0.276
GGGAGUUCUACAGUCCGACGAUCGUGUUUGACAAUGUUGCAGUUUAAAUGAUAAUGUUUAAAUCAAUUGGUACUUGCCUGUAGUGUUAAACCCUAUUUGUGCCAUUCUCAAGUCCUUUGAUGUGAAUUUUCAGUGGAAUUCUCGGGUGCCAA,0.366
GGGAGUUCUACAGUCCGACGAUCAGGGGCCUGCUGCAUGCUACGCAUUGGGAUGGGUGCCCGACAUAAUACUGAAUCCUCAAGAAGCCUUGUCAAGUUUGUAGGUAUCAUUGACGUUUUGACGAUGAGGAAAGUGGAAUUCUCGGGUGCCAA,9.86
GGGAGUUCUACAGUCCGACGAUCUGUGUGUGUAGUUUUAAUUAUGCUGCAAUGUAUAAUCUGGUGUGUUAUUUAAACAGCACUAGUACUGUACACUGGUUUUCCCUUGUGUUUGCUGUUGCACACUGAUUGCUUGGAAUUCUCGGGUGCCAA,0.553
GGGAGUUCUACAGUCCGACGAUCCACCUGUCUCUCUCCGCAUCUCACUGUUAGAUUCUUUUCCACCUUUUUAACAAAUUUGCAUGUCAGUUUCUGUCAUGUUUAUUUAUUGGAUUCUCAGCUGCCUAAUCUGUUGGAAUUCUCGGGUGCCAA,0.765

# Block 4
# Target: Max-binding protein MNT, bHLH-zipper, MAX partner unstated (MNT, Homo sapiens, UniProt Q99583, residues 220-300)
# Technique: protein-binding microarray
# Molecule type: double-stranded DNA, one strand shown
# Medium: in vitro
# Tested at: not given
# Setting: k-mer, scored over probes, only values ≥0.25
# Reading: higher = stronger binding
# Target sequence (chain): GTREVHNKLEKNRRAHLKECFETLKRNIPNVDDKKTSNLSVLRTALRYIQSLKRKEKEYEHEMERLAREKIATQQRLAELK
Strand,E-score
ATTGCATG,0.267
CCACCTGA,0.299
CGACGTGA,0.253
CACCCCTC,0.33
CGTGATAC,0.291
CATGGCAA,0.347
GAACATGC,0.342
CATGGCCC,0.31
CAGCGTGA,0.294
CGTCATGC,0.251
AAACATGT,0.329
CACGCCGG,0.352
CCATATGG,0.354
CATGGTCC,0.31

# Block 5
# Target: PABPC1L2, full length, GST fusion (mouse, UniProt A0ABA7IW68)
# Technique: RNAcompete
# Molecule type: RNA
# Medium: in vitro
# Tested at: 20 nM
# Setting: 7-mer, probes averaged, single round
# Relative to: mean of 7-mers
# Reading: higher = stronger binding
# Residues (chain): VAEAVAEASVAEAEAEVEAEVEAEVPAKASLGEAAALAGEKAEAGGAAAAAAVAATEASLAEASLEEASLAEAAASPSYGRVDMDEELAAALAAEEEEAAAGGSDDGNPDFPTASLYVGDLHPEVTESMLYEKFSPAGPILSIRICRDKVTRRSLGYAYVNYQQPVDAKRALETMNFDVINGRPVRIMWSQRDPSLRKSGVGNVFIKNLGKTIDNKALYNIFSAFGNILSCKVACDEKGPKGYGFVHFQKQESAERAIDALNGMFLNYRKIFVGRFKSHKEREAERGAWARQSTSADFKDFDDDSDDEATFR
Strand,7-mer Z-score
UGGCACU,0.148
AUACUAG,-0.135
CAAAGAC,0.537
CUUCCCA,-0.407
GCGCCCA,-0.374
AGCACGU,-0.197
UUGCUUA,-0.405
UCCUGCC,-0.467
UUGAACG,-0.271
UCCCACU,-0.342
UGAUAAC,-0.0881
ACGCGCA,-0.0772
AGAACUU,-0.186
AGCUUAC,-0.0863
CGGCAAA,0.8
UAUUUAU,-0.0391
UGAGUUU,-0.479
